Assay results from different studies.
Lines come from different studies, so protocols differ. ± gives the spread as reported.
cofactor-independent phosphoglycerate mutase W431C: cofactor-independent phosphoglycerate mutase (Metamycoplasma orale, UniProt A0A448ZXM1, W431C)
Chain of UniProt Q15761 (whole entry, looked up): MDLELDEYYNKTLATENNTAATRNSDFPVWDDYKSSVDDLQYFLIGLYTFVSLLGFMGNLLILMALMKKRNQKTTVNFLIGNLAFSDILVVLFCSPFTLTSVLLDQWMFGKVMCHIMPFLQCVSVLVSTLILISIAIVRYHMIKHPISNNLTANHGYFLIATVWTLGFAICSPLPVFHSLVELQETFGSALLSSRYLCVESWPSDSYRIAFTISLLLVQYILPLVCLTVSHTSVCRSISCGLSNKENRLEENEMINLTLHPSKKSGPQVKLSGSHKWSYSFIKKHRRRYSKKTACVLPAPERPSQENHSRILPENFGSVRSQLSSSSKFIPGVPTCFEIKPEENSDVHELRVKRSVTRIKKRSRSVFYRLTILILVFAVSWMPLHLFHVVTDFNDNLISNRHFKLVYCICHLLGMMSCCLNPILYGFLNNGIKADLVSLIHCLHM

COc1cc2c3c[n+]4c(cc3c3cc(OC)c(OC)c(OC)c3c2cc1OC)CCC4 — CC50 (swine cells; 24 (unit not given)): > 100 µM
CCCCCCCCCCCCCCCCCC(=O)N=C(N)NCCC[C@H](NC(=O)[C@H](CC(C)C)NC(=O)[C@@H](CC(C)C)NC(=O)[C@H](Cc1ccc(O)cc1)NC(=O)[C@H](CO)NC(=O)[C@H](Cc1c[nH]c2ccccc12)NC(=O)[C@H](Cc1c[nH]cn1)NC(=O)[C@@H]1CCC(=O)N1)C(=O)N1CCC[C@H]1C(=O)NCC — conversion to leucine (human plasma; 28 days, pH 7.4, 37 °C): 90.7 ± 7.74%
COc1cc(NC(=O)C(=O)c2c(C)n(Cc3ccc(Cl)cc3)c3ccc(C)cc23)ccn1 — bioavailability (female cynomolgus monkey, plasma; oral, 10 mg/kg): 20.8%
CCNc1cc2[o+]c3cc(NCC)c(C)cc3c(-c3ccccc3C(=O)OCCOCC[18F])c2cc1C — tissue uptake ratio (rat; 30 min; reference: heart over blood): 18.9
CCCCCCCCCCCCC(=O)O.O=C1CCCC2C3CCCN4CCCC(CN12)C34 (stereo not shown) — critical aggregation concentration (water; concentration not given, 303.15 K): 0.00097 mol/kg
CN(C)C(CNC(=O)Nc1cc(C(F)(F)F)ccc1N1CCOCC1)c1ccncc1 (stereo not shown) — serum total bilirubin (mouse, serum; intraperitoneal, 120 mg/kg single dose): 0.2 mg/dL
CN1C(=O)[C@H](CCC(=O)O)NC(=O)[C@H](Cc2ccc(O)cc2)NC(=O)[C@H](CCCNC(=N)N)NC(=O)[C@@H](Cc2ccc(O)cc2)NC(=O)CSC[C@@H](C(N)=O)NC(=O)[C@H](CCCCN)NC(=O)[C@@H]2CCCN2C(=O)[C@H](CS)NC(=O)[C@H](CCC(=O)O)NC(=O)[C@H](Cc2ccc(O)cc2)N(C)C(=O)[C@H](CCCCN)NC(=O)[C@H](Cc2ccc(O)cc2)NC(=O)[C@@H]1Cc1ccc(O)cc1 — AC50 (cofactor-independent phosphoglycerate mutase W431C; biochemical; Mycoplasma orale): 1.07 µM
CC(C)[C@@H]1NC(=O)[C@H](Cc2ccccc2)NC(=O)[C@H](Cc2ccc(O)cc2)NC(=O)CCSSC[C@@H](C(=O)N2CCC[C@H]2C(=O)N[C@H](CCCNC(=N)N)C(=O)NCC(N)=O)NC(=O)[C@H](CCC(N)=O)NC1=O — haematocrit (Wistar rat, blood; intravenous, 100 µg/kg single dose, 72 h): 41.2 ± 1.7%
CC(C)[C@@H]1NC(=O)[C@H](CO)N(C)C(=O)[C@H](Cc2c[nH]c3ccccc23)NC(=O)[C@H](CCC(=O)O)NC(=O)[C@H](CC(=O)O)NC(=O)[C@H](Cc2ccc(O)cc2)N(C)C(=O)[C@H](Cc2ccc(O)cc2)NC(=O)[C@H](Cc2c[nH]c3ccccc23)NC(=O)[C@H](Cc2c[nH]c3ccccc23)NC(=O)[C@H](CC(=O)O)NC(=O)CNC(=O)[C@H](CO)NC(=O)[C@@H](Cc2ccc(O)cc2)NC(=O)CSC[C@@H](C(N)=O)NC(=O)CN(C)C(=O)[C@H](Cc2ccccc2)N(C)C(=O)[C@H](C)NC1=O — AC50 (cofactor-independent phosphoglycerate mutase W431C; biochemical; Mycoplasma orale): 0.00617 µM
COC1CC(OC2CCC3(C)C4CCC5(C)C(C6=CC(=O)OC6)CCC5(O)C4CCC3(O)C2)OC(C)C1OC1OC(CO)C(O)C(O)C1O (stereo not shown) — metabolic stability (human liver S9; 1 and 3 µg/mL, 120 min): stable
O=C(c1ccc(F)cc1)C1CCN(C2Cc3c(cccc3OCC[18F])CC2O)CC1 (single isomer, unassigned; (-)) — tissue uptake (Sprague-Dawley rat, male, heart; intravenous, dose not given, 30 min): 0.39 ± 0.031 %ID/g
CN[C@](C)(C[18F])C(=O)O — tracer uptake (DU-145 tumour model; host not given, blood; 2 h, tumour-bearing): 0.7 %ID/g
N=C(N)NCCC[C@@H]1NC(=O)[C@H](CCCCNC(=O)CCOCCOCCOCCOCCNC(=O)CC[C@H](NC(=O)CCOCCOCCOCCOCCNC(=O)CC[C@H](NC(=O)CN2CCN(CC(=O)O)CCN(CC(=O)O)CCN(CC(=O)O)CC2)C(=O)NCCOCCOCCOCCOCCC(=O)N[C@@H](CCC(=O)NCCOCCOCCOCCOCCC(=O)NCCCC[C@@H]2NC(=O)[C@@H](Cc3ccccc3)NC(=O)[C@H](CC(=O)O)NC(=O)CNC(=O)[C@H](CCCNC(=N)N)NC2=O)C(=O)NCCOCCOCCOCCOCCC(=O)NCCCC[C@@H]2NC(=O)[C@@H](Cc3ccccc3)NC(=O)[C@H](CC(=O)O)NC(=O)CNC(=O)[C@H](CCCNC(=N)N)NC2=O)C(=O)NCCOCCOCCOCCOCCC(=O)NCCCC[C@@H]2NC(=O)[C@@H](Cc3ccccc3)NC(=O)[C@H](CC(=O)O)NC(=O)CNC(=O)[C@H](CCCNC(=N)N)NC2=O)NC(=O)[C@@H](Cc2ccccc2)NC(=O)[C@H](CC(=O)O)NC(=O)CNC1=O [indium-111 labelled] — tissue uptake (female athymic nude mice, liver; intravenous, 3 µCi, 4 h, U-87 MG glioma xenograft): 2.82 ± 0.54 %ID/g
CC(=O)N[C@@H](CCCNC(=N)N)C(=O)N[C@@H](Cc1ccc(O)cc1)C(=O)N[C@@H](CCCNC(=N)NC(=O)NCCCCN)C(=O)N[C@@H](CC(C)C)C(=O)N[C@@H](CCCNC(=N)N)C(=O)N[C@H](Cc1ccc(O)cc1)C(N)=O — Ki (NPY5R (Homo sapiens, UniProt Q15761); ligand displacement, radioligand): > 5 µM
O=c1cc(-c2ccccc2)oc2c(Br)c(O)c(O)c(O)c12 — half-life (C57BL/6 mouse, plasma; intravenous, 10 mg/kg, single dose): 1 h
CCCC[C@H]1C(=O)N(C)[C@@H](CCCC)C(=O)N[C@@H](CCCNC(=O)CN2CCN(CC(=O)O)CCN(CC(=O)O)CCN(CC(=O)O)CC2)C(=O)N[C@H](C(=O)NCC(N)=O)CSCC(=O)N[C@@H](Cc2ccc(O)cc2)C(=O)N(C)[C@@H](C)C(=O)N[C@@H](CC(N)=O)C(=O)N2CCC[C@H]2C(=O)N[C@@H](Cc2c[nH]cn2)C(=O)N[C@@H](CC(C)C)C(=O)N(C)CC(=O)N[C@@H](Cc2c[nH]c3ccccc23)C(=O)N[C@@H](CO)C(=O)N[C@@H](Cc2c[nH]c3ccccc23)C(=O)N1C [gallium-68 labelled] — tumour uptake (static PET; NOD/SCID mice, CHO xenograft, CHO tumour, PD-L1-negative; intravenous, 1 h post injection): 3.2 ± 0.4 %ID/g

For quick reference, copied from above:
N=C(N)NCCC[C@@H]1NC(=O)[C@H](CCCCNC(=O)CCOCCOCCOCCOCCNC(=O)CC[C@H](NC(=O)CCOCCOCCOCCOCCNC(=O)CC[C@H](NC(=O)CN2CCN(CC(=O)O)CCN(CC(=O)O)CCN(CC(=O)O)CC2)C(=O)NCCOCCOCCOCCOCCC(=O)N[C@@H](CCC(=O)NCCOCCOCCOCCOCCC(=O)NCCCC[C@@H]2NC(=O)[C@@H](Cc3ccccc3)NC(=O)[C@H](CC(=O)O)NC(=O)CNC(=O)[C@H](CCCNC(=N)N)NC2=O)C(=O)NCCOCCOCCOCCOCCC(=O)NCCCC[C@@H]2NC(=O)[C@@H](Cc3ccccc3)NC(=O)[C@H](CC(=O)O)NC(=O)CNC(=O)[C@H](CCCNC(=N)N)NC2=O)C(=O)NCCOCCOCCOCCOCCC(=O)NCCCC[C@@H]2NC(=O)[C@@H](Cc3ccccc3)NC(=O)[C@H](CC(=O)O)NC(=O)CNC(=O)[C@H](CCCNC(=N)N)NC2=O)NC(=O)[C@@H](Cc2ccccc2)NC(=O)[C@H](CC(=O)O)NC(=O)CNC1=O [indium-111 labelled] — tissue uptake (female athymic nude mice, liver; intravenous, 3 µCi, 4 h, U-87 MG glioma xenograft): 2.82 ± 0.54 %ID/g
CCCC[C@H]1C(=O)N(C)[C@@H](CCCC)C(=O)N[C@@H](CCCNC(=O)CN2CCN(CC(=O)O)CCN(CC(=O)O)CCN(CC(=O)O)CC2)C(=O)N[C@H](C(=O)NCC(N)=O)CSCC(=O)N[C@@H](Cc2ccc(O)cc2)C(=O)N(C)[C@@H](C)C(=O)N[C@@H](CC(N)=O)C(=O)N2CCC[C@H]2C(=O)N[C@@H](Cc2c[nH]cn2)C(=O)N[C@@H](CC(C)C)C(=O)N(C)CC(=O)N[C@@H](Cc2c[nH]c3ccccc23)C(=O)N[C@@H](CO)C(=O)N[C@@H](Cc2c[nH]c3ccccc23)C(=O)N1C [gallium-68 labelled] — tumour uptake (static PET; NOD/SCID mice, CHO xenograft, CHO tumour, PD-L1-negative; intravenous, 1 h post injection): 3.2 ± 0.4 %ID/g
